Experimental data from different studies.
Each line is one published result; not all experiments were run side by side.
Target: Voltage-gated inwardly rectifying potassium channel KCNH2 (KCNH2, Homo sapiens, UniProt Q12809)
UniProt Q12809, sequence (whole entry, looked up): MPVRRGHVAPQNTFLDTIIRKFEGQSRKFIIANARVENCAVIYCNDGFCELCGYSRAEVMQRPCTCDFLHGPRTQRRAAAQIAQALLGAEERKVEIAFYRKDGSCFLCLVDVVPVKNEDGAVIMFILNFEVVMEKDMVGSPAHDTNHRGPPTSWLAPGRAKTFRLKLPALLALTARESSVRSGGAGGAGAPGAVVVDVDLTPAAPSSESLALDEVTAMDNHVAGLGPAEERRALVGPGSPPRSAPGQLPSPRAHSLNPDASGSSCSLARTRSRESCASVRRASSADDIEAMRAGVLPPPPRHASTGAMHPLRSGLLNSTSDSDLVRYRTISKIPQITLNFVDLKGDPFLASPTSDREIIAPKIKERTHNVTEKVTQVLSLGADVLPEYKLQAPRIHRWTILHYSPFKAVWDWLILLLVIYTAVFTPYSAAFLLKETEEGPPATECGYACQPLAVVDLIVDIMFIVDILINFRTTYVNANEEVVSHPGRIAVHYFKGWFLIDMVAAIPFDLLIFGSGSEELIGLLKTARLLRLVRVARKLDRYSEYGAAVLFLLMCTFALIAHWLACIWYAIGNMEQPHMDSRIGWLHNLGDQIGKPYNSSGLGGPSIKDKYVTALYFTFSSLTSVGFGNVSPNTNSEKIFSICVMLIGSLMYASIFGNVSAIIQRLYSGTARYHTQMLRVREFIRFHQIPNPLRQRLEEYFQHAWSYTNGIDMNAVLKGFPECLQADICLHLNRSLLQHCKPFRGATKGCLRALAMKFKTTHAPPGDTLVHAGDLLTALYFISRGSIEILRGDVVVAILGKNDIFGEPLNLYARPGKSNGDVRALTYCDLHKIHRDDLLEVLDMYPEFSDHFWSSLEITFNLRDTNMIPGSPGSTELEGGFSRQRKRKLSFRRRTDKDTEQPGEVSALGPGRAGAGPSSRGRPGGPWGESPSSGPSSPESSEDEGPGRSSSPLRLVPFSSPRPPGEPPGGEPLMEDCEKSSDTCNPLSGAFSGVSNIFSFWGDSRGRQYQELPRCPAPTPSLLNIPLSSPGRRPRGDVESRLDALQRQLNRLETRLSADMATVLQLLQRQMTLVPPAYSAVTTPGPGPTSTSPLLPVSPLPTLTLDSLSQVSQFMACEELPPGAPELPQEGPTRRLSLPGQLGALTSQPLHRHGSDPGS

| Compound | test | system | setting | IC50 [µM] |
| --- | --- | --- | --- | --- |
| CCC1(CC)CC(=O)N(C2CCOc3ccc(C(=O)NC4CC(C)(C)Oc5ccccc54)cc32)C(=N)N1 (centres unmarked) | ion current, inhibitor, patch clamp | CHO | pH 7.3 | 0.63 |
| C[C@H]1CN(C(=O)c2cn(-c3ccnc(N)n3)c3cc(C#CC4(O)CCCCC4)ccc23)CCN1 |  |  |  | 30.7 |
| CN(CCC#N)c1nc(NCC[C@H]2CCCN2C)nc2sc(-c3ccccc3)cc12 | ion current, inhibitor |  |  | 0.46 |
| CC(C)(C)n1ncc2c(=O)n(Cc3cccc(F)c3)c(NCc3ccc(F)cn3)nc21 | ion current, inhibitor |  |  | > 40 |
| CC(=O)N(C)CCN1CCN(c2cnc3c(cc(C(=O)NCc4ccc(Cl)cc4)c(=O)n3CC(=O)N3CC(C)(F)C3)n2)C1=O | ion current, automated patch clamp | CHO expressing hERG |  | 13 |
| COC1C(c2ccc(Cl)c(Cc3ccc(OC4CCOC4)cc3)c2)OC(CO)C(O)C1O (centres unmarked) | ion current, inhibitor |  |  | > 30 |
| CC(C)(C)NCc1ccc(Nc2ccnc3cc(Cl)ccc23)cc1O | ion flux, inhibitor |  | 30 min | > 10 |
| CN(C)CCN1CCN(CCCN2c3ccccc3Sc3ccc(C(F)(F)F)cc32)CC1 |  |  |  | 2.1 |
| CN1CCCN(c2cnc3c(cc(C(=O)NCc4ccc(Cl)cc4)c(=O)n3CC(=O)N3CC(C)(F)C3)n2)C1=O | ion current, automated patch clamp | CHO expressing hERG |  | 9.9 |
| O=C(c1ccc(-c2cccc(C(F)(F)F)c2)cc1)N1CCN(c2ncccn2)CC1 | ion current, automated patch clamp |  |  | 14 |
| CCC1(CC)CC(=O)N(C2c3cc(C(=O)NC4c5ccccc5CC4O)ccc3OC2(C)COC)C(=N)N1 (centres unmarked) | ion current, inhibitor, patch clamp | CHO | pH 7.3 | 25 |
| OCC1OC(n2cnc3c(NCc4ccc(Br)s4)ncnc32)C(O)C1O (centres unmarked) | ion current, inhibitor, patch clamp |  |  | 154 |
| Cn1ccc([C@H](CCO)Nc2nc(N3CCOCC3)c3cc(-c4ccccc4)sc3n2)n1 | ion current, inhibitor |  |  | 19 |
| Cc1[nH]nc2c1N=C(c1ccccc1Cl)c1cnc(N3CCOCC3)cc1N2 | ion current, inhibitor |  |  | 9 |

For quick reference, copied from above:
| Compound | test | system | setting | IC50 [µM] |
| --- | --- | --- | --- | --- |
| OCC1OC(n2cnc3c(NCc4ccc(Br)s4)ncnc32)C(O)C1O (centres unmarked) | ion current, inhibitor, patch clamp |  |  | 154 |
| CC(C)(C)NCc1ccc(Nc2ccnc3cc(Cl)ccc23)cc1O | ion flux, inhibitor |  | 30 min | > 10 |
